Measurements pooled from the literature.
Parts stem from different laboratories: compare values within a part only. Changes are numbered by the printed parent chain.

Set 1 — method: protein-binding microarray; form: double-stranded DNA, one strand shown; sample: in vitro; tested at: 250 nM; notes: 60-bp whole probe; together with: salmon DNA 0.4 mg/ml; reference: random background probes; reading: higher = stronger binding; quantity: log fluorescence; shared flanks, not repeated: GCCTAGCAC … GTCTTGATTCGCTTGACGCTGCTG
Target: Interferon regulatory factor 5, full length, phosphomimetic (IRF5, Homo sapiens, UniProt Q13568-2, residues 1-514, K96S/S451D/S453D/S456D/S462D)
TTAGGTTTCGGTTTCCGTTAGTGCTAG: 10.7 z-score
ACATCTCTCTTAAATAGGGACGTGCTA: 0.00221 z-score
GACGAACTGGGGTATTGAGACGTGCTA: -0.292 z-score
GTCGGTATCGACACTGGGGACGTGCTA: 2.07 z-score
TCATCTTTCTACATAGAACTGTGCTAG: 2.17 z-score
GACGGCATCCTTTTCCTGACGTGCTAG: -0.148 z-score
TAGCGTATATTCCCTAGAATAGTGCTA: 0.0662 z-score
GACGAACTGAGTCTCGAGCCGTGCTAG: -0.254 z-score
GACGGTTTCCTTATCCCGACGTGCTAG: 1.04 z-score
TTAGGTGCCCTTTTCCTTTAGTGCTAG: -0.0658 z-score
TTAGGTTTCGGGTTTCGGTGAGTGCTA: 9.56 z-score
TTAGATCTCTGACTGGATTAGTGCTAG: -0.315 z-score
CTCTGCTTGGGTCTGGGTATGTGCTAG: -0.535 z-score
TGGGCTACCTCTCTTAGAATGTGCTAG: -0.616 z-score
GACGGTCTCCTTTCCCTGACGTGCTAG: 0.401 z-score
TCATCGATTTCTCTTTCCACTGTGCTA: 2.38 z-score
GACGGTATCGGTTTCGGGACGTGCTAG: 8.28 z-score
GGCGATATCAGTCTCGAGACGTGCTAG: 0.813 z-score

Set 2 — method: protein binding microarray; form: double-stranded DNA, one strand shown; sample: in vitro; tested at: not given; reference: not given; reading: higher = stronger binding; quantity: E-score
Target: Histone acetyltransferase KAT6A, both winged helices, GST fusion (KAT6A, Homo sapiens, UniProt Q92794, residues 1-181)
Notes: 8-mer, flanks averaged, mean of 2 arrays, mostly near background
Residues (chain): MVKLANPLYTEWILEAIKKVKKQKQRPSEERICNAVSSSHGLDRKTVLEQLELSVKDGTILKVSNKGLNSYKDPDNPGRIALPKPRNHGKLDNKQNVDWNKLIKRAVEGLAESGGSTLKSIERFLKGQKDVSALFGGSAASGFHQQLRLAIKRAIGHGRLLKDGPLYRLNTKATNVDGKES
AACGTTTA: 0.0115
CGTGGGGA: -0.00764
AAGGGCCA: -0.274
CCAACGGA: 0.154
AAGGAAAG: -0.0434
AGTGGATG: -0.111
ATACAGGC: -0.144
CATTATGC: 0.0139
AGTCCGGA: 0.0549
CTTCAGGA: -0.136
CACCGGTA: 0.136
CTGATCCA: -0.189
AACATTGC: 0.0194
AGTTGCTC: -0.189
TCAGGGAA: -0.0733

Set 3 — method: DHFR PCA, dose-response; sample: yeast; together with: (+)-ABA, dose series; reading: lower = more sensitive; quantity: ABA EC50
Target: ABI1, truncated, D143A, DHFR fusion (Arabidopsis thaliana, UniProt P49597)
Notes: Hill fit, not affinity, not high confidence
Parent: PYL1, truncated, DHFR fusion (Arabidopsis thaliana, UniProt Q8VZS8); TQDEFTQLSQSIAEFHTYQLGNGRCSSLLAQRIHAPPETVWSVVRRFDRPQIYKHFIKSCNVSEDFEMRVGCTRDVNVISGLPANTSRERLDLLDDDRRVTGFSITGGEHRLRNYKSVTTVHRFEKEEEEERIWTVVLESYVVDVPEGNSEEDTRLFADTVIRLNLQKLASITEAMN
T160P: 15 µM
F157G: 20.3 µM
W41N: 63.5 µM
L156P: 4.65 µM
Y141G: 17.2 µM
K54F: 65.7 µM
H16V: 708 µM
T154R: 4.11 µM
V121S: 1730 µM
D159I: 1730 µM
L166Y: 716 µM
L93P: 2.15 µM
Y115C: 1600 µM
A84H: 0.814 µM
T135E: 487 µM
N149Q: 241 µM
G108Y: 1230 µM
L82E: 0.212 µM
T154I: 48.2 µM
V43D: 0.532 µM

Set 4 — target: CCNB3, cyclin fold, Cln2 fusion (human); method: yeast growth competition, sequencing; sample: yeast; notes: strong parent motif; reference: not given; reading: higher = stronger binding; quantity: normalised enrichment score
Parent: RBL2 docking peptide (human); STTRRRLFVENDS
STTRRRLFQENDS [V9Q]: 0.852
STTRRRLFVKNDS [E10K]: 0.158
STTRRRLFSENDS [V9S]: 0.98
STTRRRLFVQNDS [E10Q]: 0.524
STTRHRLFVENDS [R5H]: -0.0965
STTRRRLFVENDI [S13I]: 0.883
STTRRRLFVENDM [S13M]: 0.868
STTRSRLFVENDS [R5S]: 0.438
STTRRRLAVENDS [F8A]: -0.107
STTRRRLFVENPS [D12P]: 1.16
STTRRRLFVENDN [S13N]: 0.853
STTRRDLFVENDS [R6D]: 0.488
STTRRNLFVENDS [R6N]: 0.302

Set 5 — method: RNA Bind-n-Seq; form: RNA; sample: in vitro; tested at: 1 µM; notes: whole 134-nt RNA, ends assumed; together with: 150 mM KCl; reference: input library; reading: higher = stronger binding; quantity: log2 enrichment
Target: Ras GTPase-activating protein-binding protein 1, RRM domain (G3BP1, Homo sapiens, UniProt Q13283)
Chain of UniProt Q13283 (whole entry, looked up): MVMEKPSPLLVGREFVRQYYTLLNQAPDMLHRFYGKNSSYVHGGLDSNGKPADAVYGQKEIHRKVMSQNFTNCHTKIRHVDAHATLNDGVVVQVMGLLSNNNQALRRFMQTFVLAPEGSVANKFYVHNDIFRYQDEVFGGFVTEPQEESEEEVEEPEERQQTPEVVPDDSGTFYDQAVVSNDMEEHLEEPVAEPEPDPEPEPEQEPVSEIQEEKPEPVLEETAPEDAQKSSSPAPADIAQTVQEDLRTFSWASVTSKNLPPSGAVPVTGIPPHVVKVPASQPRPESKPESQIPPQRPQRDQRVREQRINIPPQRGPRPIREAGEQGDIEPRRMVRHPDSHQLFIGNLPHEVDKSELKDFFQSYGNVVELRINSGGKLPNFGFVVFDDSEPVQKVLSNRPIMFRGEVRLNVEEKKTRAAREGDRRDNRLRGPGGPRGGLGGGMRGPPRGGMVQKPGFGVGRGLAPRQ
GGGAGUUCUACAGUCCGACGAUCAAGUCCUGUGCUACACAUCGUAUGUACCGAAUCGGGGUGGGGAGGGGAAAAAGGGGAAAGUAUUAUGUUACGCCGUUCGGAUCUGCACUUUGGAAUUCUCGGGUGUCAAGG: 0.82
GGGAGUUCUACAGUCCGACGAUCCCUGUGCUACACAUCGUAUGUACCGAAUCGGCCCCCCCGGGCCCCCCCGGGCCCCCCCGGGAAAGUAUUAUGUUACGCCGUUCGGAUCUGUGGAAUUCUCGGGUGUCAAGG: -0.6
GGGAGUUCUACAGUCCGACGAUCUCAAGUCCUGUGCUACACAUCGUAUGUACCGAAUCGGGUUUGGUUUGGGUUUGGAAAGUAUUAUGUUACGCCGUUCGGAUCUGCACUUCCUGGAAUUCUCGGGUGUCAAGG: -0.319
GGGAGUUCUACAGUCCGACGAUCAGUCCUGUGCUACACAUCGUAUGUACCGAAUCGGGGUUUUGGGUUUUGGGUUUUGGGGAAAGUAUUAUGUUACGCCGUUCGGAUCUGCACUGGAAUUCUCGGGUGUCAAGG: 0.417
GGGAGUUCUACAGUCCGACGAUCCACAGACAACACGCACCCACACAGACACAGAGGGAAGGGGUUAGGAUGGGGACAGGGUGCACAGCAGGGCGGGGUAGGACCCCAGCCCCUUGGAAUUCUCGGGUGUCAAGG: 0.175
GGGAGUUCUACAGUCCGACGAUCCUGUGCUACACAUCGUAUGUACCGAAUCGGGGUUUUUGGGGUUUUUUUGGGGUUUUUGGGGAAAGUAUUAUGUUACGCCGUUCGGAUCUGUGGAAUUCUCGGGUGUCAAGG: 0.819
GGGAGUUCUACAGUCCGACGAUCACCAUGCAGGUGGGCAUCUUUGGGAAGUAGGGCAAGGGGGGGAUAGGGAGGGGGGUAACACUUUGGGAACAGGUGGUCCCAGGUCGUUUCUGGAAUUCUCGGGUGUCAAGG: -0.346
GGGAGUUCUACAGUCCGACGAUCUAACUUUAGAGGAGGAUCUGAUGGAUAUGUCAGUGGACGUGGAUUUGGGGAUGGCUAUAAUGGGUAUGGAGGAGGACCUGGAGGUGGCAAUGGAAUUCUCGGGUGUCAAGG: -0.793
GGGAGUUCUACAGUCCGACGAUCUCAAGUCCUGUGCUACACAUCGUAUGUACCGAAUCGGAGGAAAGGUUUUUUUGGAAAGUAUUAUGUUACGCCGUUCGGAUCUGCACUUCCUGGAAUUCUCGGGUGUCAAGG: -0.309

A few entries again (set 1):
TAGCGTATATTCCCTAGAATAGTGCTA: 0.0662 z-score
GGCGATATCAGTCTCGAGACGTGCTAG: 0.813 z-score
TTAGATCTCTGACTGGATTAGTGCTAG: -0.315 z-score
TTAGGTTTCGGGTTTCGGTGAGTGCTA: 9.56 z-score
TTAGGTGCCCTTTTCCTTTAGTGCTAG: -0.0658 z-score
